Experimental data collected from several papers.
Lines come from different studies, so protocols differ. ± marks the error that the study gave.

Structure (SMILES) | system | conditions | Cmax
CC1=C2C[C@H]3[C@@H](CC[C@@H]4C[C@H](NS(C)(=O)=O)CC[C@@]43C)[C@@H]2CC[C@@]2(C1)O[C@@H]1C[C@H](C)CN[C@H]1[C@H]2C | patients, plasma | oral, 200 mg daily, day 22, cycle 1 | 723 ng/mL
C=CC(N)CCC(=O)O (stereo not drawn) | male Sprague-Dawley rat, plasma | oral, 10 mg/kg, formulation 10, with: Sar 200 mg/kg | 9480 ± 738 ng/mL
CS(=O)(=O)c1ccc(-c2cnc(N)c(-c3ccc(C(F)(F)F)nc3)c2)cc1 | pregnant female Sprague-Dawley rat, plasma | oral, 3 mg/kg/day, gestation day 6 | 626 ng/mL
CO[C@H]1C[C@@H]2CC[C@@H](C)[C@@](O)(O2)C(=O)C(=O)N2CCCC[C@H]2C(=O)O[C@H]([C@H](C)C[C@@H]2CC[C@@H](O)[C@H](OC)C2)CC(=O)[C@H](C)/C=C(\C)[C@@H](O)[C@@H](OC)C(=O)[C@H](C)C[C@H](C)/C=C/C=C/C=C/1C | human, whole blood | oral, 60 mg, compound alone | 57.7 ng/mL
O=C(CCCCCCC(=O)Nc1ccccc1)NO | cancer patients, serum | oral, 400 mg, cycle 1 day 2, with: flavopiridol 30 to 30 mg/m^2 | 3480 nM
C=CC(=O)N1CCC(CNc2ncnc(N)c2-c2ccc(Oc3ccccc3)cc2)CC1 | cynomolgus monkey, male | oral, 10 mg/kg | 3.2 ng/mL
CCCC[C@H](NC(C)=O)C(=O)N[C@H]1CCC(=O)NC[C@@H](C(=O)N[C@@H](Cc2c[nH]c3ccccc23)C(N)=O)NC(=O)[C@H](CCCNC(=N)N)NC(=O)[C@@H](Cc2ccccc2)NC(=O)[C@H](Cc2c[nH]cn2)NC1=O | beagle dog, male, plasma | subcutaneous, 8.0 mg/kg daily, day 1 | 400 ng/mL
CC(C)[C@H](N)C(=O)NCCCS(=O)(=O)O | human, plasma | oral, 340 mg capsule, day 14, fasted, multiple dosing | 10400 ± 2880 ng/mL
Cc1cc(Nc2cc3ncccc3c(N[C@@H]3C[C@H]4CC[C@@H](C3)N4CCC#N)n2)n[nH]1 | beagle dog, male, plasma | oral, 100 mg/kg/day, last day of 13 weeks | 522 ng/mL
Cc1cc(C(=O)NC(C)(C)COc2cccc3c2C(N)=NS(=O)(=O)N3)cc(C)n1 | Sprague-Dawley rat, both sexes, plasma | oral, diet, 70 mg/kg/day, day 91, combined sexes mean | 77.6 nM
CCCCCCCCCCCCCCCCCCOP(=O)([O-])OC1CC[N+](C)(C)CC1 | rhesus monkey, male, plasma | oral, 7 mg/kg, single dose | 7100 ng/mL
CC(C)NC[C@@H](C(=O)N1CCN(c2ncnc3c2[C@H](C)C[C@H]3O)CC1)c1ccc(Cl)cc1 | human, hepatic impairment Severe (Child-Pugh), plasma | oral, 100 mg single, geometric mean | 80 ng/mL
